Results collected from several papers.
A part holds a random share of what one study measured.

Set 1 — technique: RNA Bind-n-Seq; molecule type: RNA; matrix: in vitro; concentration: not given; baseline: input RNA pool; reading: higher = stronger binding
Target: RING finger protein unkempt homolog, zinc fingers 1-6, GST-SBP tag (UNK, Homo sapiens, UniProt Q9C0B0, residues 30-357)
UniProt Q9C0B0, sequence (30-357, looked up): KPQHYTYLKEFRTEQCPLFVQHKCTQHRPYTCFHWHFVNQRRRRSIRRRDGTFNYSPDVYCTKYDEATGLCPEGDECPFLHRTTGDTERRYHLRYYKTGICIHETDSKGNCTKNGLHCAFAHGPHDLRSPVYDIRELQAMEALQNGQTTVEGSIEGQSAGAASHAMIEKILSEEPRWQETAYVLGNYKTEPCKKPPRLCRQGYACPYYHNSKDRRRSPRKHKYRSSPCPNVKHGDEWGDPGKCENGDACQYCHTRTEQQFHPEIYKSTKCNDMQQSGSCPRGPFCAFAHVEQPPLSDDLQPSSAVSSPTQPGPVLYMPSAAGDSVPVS
Setting: RNA with constant flanks, human-mouse chimeric sites, ends assumed
Sequence	bound/input enrichment [ratio]
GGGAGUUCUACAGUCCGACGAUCGUGACUGGUGUUAAGAUUUCCCCUCAGCAAAGAAGUGCAGUAGUCACAAUAAUCCCUUCUGUGGUGAGUGCCAGUCAGAUUGUGGAGCUGGUUCCAGACCUCAGUUUAGACAUGGGAACUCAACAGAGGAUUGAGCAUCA	0.237
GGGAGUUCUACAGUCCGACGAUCGGUGGGGUGGUCAUUGCGCCAAUUGAGGCUGAUUUUCAUGAGUCGCCUUCAAAACUCUCGUGUAGGGUUGACAAUGUGGGGGGGUGGGGGAUCCAGCUUAUUCUUUUAUUUUCAAGUCCACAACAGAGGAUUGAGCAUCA	0.695
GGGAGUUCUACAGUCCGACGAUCCUGUGACCACAAGAUCCUACCUGAGUGGCAGCUGAAGUUGACUCCCUCUCCUUGCCUGAACCCCCCCCUUUUGUUCCCCCAUCCCCCAGUGUCGGCUGAGAUGUUGCCAGCAGACAGUUCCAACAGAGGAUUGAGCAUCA	0.843
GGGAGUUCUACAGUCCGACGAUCUCCCAAAUUAUAAGGCAAGAAGGAGCCUUGAGACAAACACUCCACACACAGGGAAGGCGAUAACAUUGUACAUUGGUUUACAUUUUUUCCCCCUGUGUUUUCUAGGGGAGGUCAUAGUGCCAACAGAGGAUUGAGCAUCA	0.486
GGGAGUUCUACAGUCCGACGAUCGGCCUGGGACCGUCCUGGCUAGUGCAAAAUAGCGGCAGUGGAGGCUCGAGAGGAAAGUUUGUUAGUGGAGGCAGUGGAGAGGUCGUCCAUGUACGGUCCUUUACUCGAUAGAUGUGUUCUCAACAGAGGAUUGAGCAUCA	0.873
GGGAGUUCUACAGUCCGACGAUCACUCUUGACUCUUUCCAUUCUCGUCCCUUCCCUCUUGAUAUUCAAGGCCAUGAAUCCCAAAAUAACAGUCUUAGUGGCUAGCACCCAAACAGAGGUGGGUGCCAUCCACCCCAGUGUCUCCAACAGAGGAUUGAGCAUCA	0.387
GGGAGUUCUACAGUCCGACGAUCUCAACAGACAACAUCAAAUACCAGCCUAAGGGGGGUCAGGUACAAAUUGUUACCAAGAAAAUAGACCUAAGCCAUGUGACAUCCAAAUGUGGCUCUCUGAAGAACAUCCGUCACAGGCCACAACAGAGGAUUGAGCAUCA	0.639
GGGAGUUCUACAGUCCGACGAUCGAUCAUGAACCACCAUCCAGAAAUGAAAUGAGAUUACCCAGACGAGCCAAAACAGCUGCGCUACAGAAAAGUAAACUUUAACCUUGCGAGUUCCUUAAUGAAGAUACAAGUUAAGAGAGCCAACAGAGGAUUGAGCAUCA	0.214
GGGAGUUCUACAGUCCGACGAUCACUCUUGACUCUUUCCAUCCUCUUCCUUUCCCUCUUGAUAUUCAAGGCCAUGAAUCCCAAAAUAACAGUCUUAGUGGCUAGCACCCACCCAAACUGAGAAUAAAUCCACCCCAGUGUCUCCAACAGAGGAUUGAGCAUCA	0.502
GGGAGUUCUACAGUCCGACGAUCGCAGGAUCUUCUAAGUACCAGUGGGGCAUUAUGAAAUCCCUUGGGCUCUCUGAUGACGACAUAGUGAAGUUUUCUGAAGCAGAGCACUGGCUUGAUUAUUUCCCGCCACUGGCCGUUCAGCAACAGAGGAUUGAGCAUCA	0.119
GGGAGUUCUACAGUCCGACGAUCCUGGCCUGGCCCUCCCCUCUAGUGACCUUUCGUAUAGUAACUGUCAGUGCAUCAGAUACUUUCAGCUGCAACUCCCUACUGGGUGGGGCACCCAUUUCAGGCAGAAGGUUUUGGUACCCUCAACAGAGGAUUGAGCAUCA	5.23

Set 2 — technique: protein binding microarray; molecule type: double-stranded DNA, one strand shown; matrix: in vitro; concentration: not given; baseline: not given; reading: higher = stronger binding
Target: Histone acetyltransferase KAT6A, winged helix 1, GST fusion (KAT6A, Homo sapiens, UniProt Q92794, residues 1-85)
Setting: 8-mer, flanks averaged, mean of 2 arrays, mostly near background
Construct (chain): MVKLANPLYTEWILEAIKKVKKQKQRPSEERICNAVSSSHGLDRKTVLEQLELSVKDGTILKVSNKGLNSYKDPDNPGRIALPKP
Sequence	E-score
CCAATTCC	-0.102
AATAACCG	0.162
CCAGCGCC	0.294
AGCAGCCT	-0.175
CGGCTAAA	0.167
AACCCCTA	-0.0967
CATAATGC	0.0483
GCACGCTA	0.17
CAAGACCA	-0.232
CGCACTCA	0.154
AGTGAGAT	-0.0338
GAACTCGC	0.0236
GCGCTCTA	0.257
GAAGGGTA	-0.00466
GACATGTA	-0.0178
ATTGAATC	-0.0379
CGTCGCTA	0.286
GAGACTAC	0.00284
ACGCGTGA	0.212
CCCGTGCA	0.225
AGTTGACG	-0.0996

Set 3 — technique: RNA Bind-n-Seq; molecule type: RNA; matrix: in vitro; concentration: 1 µM; setting: whole 134-nt RNA, ends assumed; added: 150 mM KCl; baseline: input library; reading: higher = stronger binding
Target: Ras GTPase-activating protein-binding protein 1, RRM domain (G3BP1, Homo sapiens, UniProt Q13283)
UniProt Q13283, sequence (whole entry, looked up): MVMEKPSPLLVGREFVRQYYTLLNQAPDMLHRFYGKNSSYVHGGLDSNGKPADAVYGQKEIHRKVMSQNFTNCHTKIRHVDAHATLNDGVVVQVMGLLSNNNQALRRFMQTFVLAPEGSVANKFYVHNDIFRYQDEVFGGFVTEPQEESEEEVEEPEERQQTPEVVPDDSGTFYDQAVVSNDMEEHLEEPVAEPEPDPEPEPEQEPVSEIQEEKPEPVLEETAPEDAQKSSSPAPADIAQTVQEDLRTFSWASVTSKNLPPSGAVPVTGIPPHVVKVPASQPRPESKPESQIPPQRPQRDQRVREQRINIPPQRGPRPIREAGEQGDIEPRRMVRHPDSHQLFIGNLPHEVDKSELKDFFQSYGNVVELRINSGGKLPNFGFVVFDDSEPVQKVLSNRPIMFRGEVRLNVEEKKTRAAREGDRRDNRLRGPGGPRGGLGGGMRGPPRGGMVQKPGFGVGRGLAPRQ
Sequence	log2 enrichment
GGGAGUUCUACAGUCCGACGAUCAAGUCCUGUGCUACACAUCGUAUGUACCGAAUCGGAAAAAAAGGUUUUUUUGGUGGAAAGUAUUAUGUUACGCCGUUCGGAUCUGCACUUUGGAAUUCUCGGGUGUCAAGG	-0.332
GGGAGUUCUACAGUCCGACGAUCUCCUGUGCUACACAUCGUAUGUACCGAAUCGGGCCCCCCGGGCCCCCCGGCCCCCCGGGAAAGUAUUAUGUUACGCCGUUCGGAUCUGCAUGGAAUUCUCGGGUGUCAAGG	-0.365
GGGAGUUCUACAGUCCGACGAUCCCUCAAGUCCUGUGCUACACAUCGUAUGUACCGAAUCGGGUGGGGUGGGGUGGAAAGUAUUAUGUUACGCCGUUCGGAUCUGCACUUCCAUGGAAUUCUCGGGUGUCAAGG	0.0517
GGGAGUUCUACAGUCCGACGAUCUCCUGUGCUACACAUCGUAUGUACCGAAUCGGGGAAAAAGGGGUUUUUUUGGGGUGGGGAAAGUAUUAUGUUACGCCGUUCGGAUCUGCAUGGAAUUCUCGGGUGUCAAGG	0.703
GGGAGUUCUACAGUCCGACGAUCCAAGUCCUGUGCUACACAUCGUAUGUACCGAAUCGGAAAAGGGAAAAGGAAAAGGGAAAGUAUUAUGUUACGCCGUUCGGAUCUGCACUUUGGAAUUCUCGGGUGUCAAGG	-0.247
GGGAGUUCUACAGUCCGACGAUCCCUGUGCUACACAUCGUAUGUACCGAAUCGGGGAAAAAAAGGAAAAAAAGGAAAAAAAGGAAAGUAUUAUGUUACGCCGUUCGGAUCUGCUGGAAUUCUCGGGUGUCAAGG	0.179
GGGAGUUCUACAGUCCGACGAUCCUGUGCUACACAUCGUAUGUACCGAAUCGGGGUUUUUGGGGAAAAAGGGGUUUUUUUGGGGAAAGUAUUAUGUUACGCCGUUCGGAUCUGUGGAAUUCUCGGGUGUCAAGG	1.07
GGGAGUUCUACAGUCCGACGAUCUCCUGUGCUACACAUCGUAUGUACCGAAUCGGGUUUUUGGGGUUUUUGGGGUUUUUGGGGAAAGUAUUAUGUUACGCCGUUCGGAUCUGCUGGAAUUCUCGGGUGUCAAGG	0.243
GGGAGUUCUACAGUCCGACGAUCGCAGGAAGUAAAAACAAAUGGAAAUGCUUCGGAUAGUGGCAGGGGUGGGGGUUGCUAAGGAAAGAAAGGGAUGGGAGUGGGUAAAGAGUUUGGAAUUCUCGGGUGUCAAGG	1.57
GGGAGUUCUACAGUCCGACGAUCAGUCCUGUGCUACACAUCGUAUGUACCGAAUCGGGGAGGGGUUUGGGGAAAAAGGGGAAAGUAUUAUGUUACGCCGUUCGGAUCUGCACUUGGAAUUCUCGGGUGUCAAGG	1.21

Set 4 — technique: competition protein-binding microarray; molecule type: double-stranded DNA, one strand shown; matrix: in vitro; concentration: 2 µM; added: Cbf1 competitor, 0.05 µM; reading: higher = stronger binding
Target: Phosphate system positive regulatory protein PHO4, full length, GST-tagged (PHO4, Saccharomyces cerevisiae, UniProt P07270, residues 1-312)
Setting: whole 60-bp probe, lowest competitor level
Target sequence (chain): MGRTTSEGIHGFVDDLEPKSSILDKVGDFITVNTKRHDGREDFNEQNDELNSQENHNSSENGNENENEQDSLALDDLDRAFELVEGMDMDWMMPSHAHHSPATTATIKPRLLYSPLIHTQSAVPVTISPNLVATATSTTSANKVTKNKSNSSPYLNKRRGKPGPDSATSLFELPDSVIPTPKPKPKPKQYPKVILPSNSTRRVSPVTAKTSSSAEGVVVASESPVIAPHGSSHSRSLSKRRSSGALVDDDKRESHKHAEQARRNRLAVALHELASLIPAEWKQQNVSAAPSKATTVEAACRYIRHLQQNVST
Sequence	fluorescence intensity [a.u.]
CATACCCAACCTTTTCACGTGAGATAAGATATTTGTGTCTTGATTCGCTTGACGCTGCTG	11700
ACAAGGCTAAGGGCGCACATGTGTGGGACCCGGAGGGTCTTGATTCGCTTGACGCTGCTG	11300
GTCTTGTCTCATTGTGAGGTGGGTGTCCCCACTTCAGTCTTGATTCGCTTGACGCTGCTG	5300
TGCGCAACAACTTGTGCTGTGGGTGTATGTCTAGAAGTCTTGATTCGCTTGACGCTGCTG	5830
GTCCGTAACAATTTGCACGATGCTGGCTTCTATGCCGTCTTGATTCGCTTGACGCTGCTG	9680
AAGGGAAAAAGCTTTGGCGTGCTTTACGATATGGCTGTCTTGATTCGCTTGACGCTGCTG	6370
TTGAACTTGTACTTGCACATGTATCTTATTGTTTCGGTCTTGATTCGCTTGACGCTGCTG	9070
AACGATGCCCTTACCCACGTTATTGTTGTATAATTCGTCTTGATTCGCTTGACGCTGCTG	11900
TGCGCAACAACTTGTCACTATACTTTATGTCTAGAAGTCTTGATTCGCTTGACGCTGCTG	3180
AGCGTAATCTATACCCACGTAAACCCACTGAGATAAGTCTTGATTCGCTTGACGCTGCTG	5710
TGCGCAACAACTTGTGTCGTGGGTGTATGTCTAGAAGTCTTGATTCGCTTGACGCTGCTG	6870
GAGCGGGATTCCCATCACGTGGTGATGGGATAATGCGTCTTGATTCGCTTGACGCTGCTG	14200
TCCGAAACGTCGAGTCACGGGTCCTGACAAGCAACCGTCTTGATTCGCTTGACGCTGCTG	5900
TGATAATGCAATAGCCTTTGATGACAATGTTAGTAAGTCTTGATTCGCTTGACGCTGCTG	3410
CGGGGTTAAGTTTGGCTGGTGGGTGGCTTGCAGCAGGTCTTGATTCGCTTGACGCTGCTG	4530
GTAGAGCAGGATGATCCCGTGCCAGAACTGGATATCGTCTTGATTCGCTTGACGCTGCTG	8190
TTGCATAGGCAGCATATCGCCCCCAGTAATCATTGGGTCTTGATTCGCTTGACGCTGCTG	3740
CAACCGCATCGGCTCAACCTGATCTTGCAATTAGCAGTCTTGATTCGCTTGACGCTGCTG	2780
ATACTGAAGATTCGAAACGTGTTTCTAAAACCAATAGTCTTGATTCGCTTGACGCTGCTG	13900
AAAAGAATTATTTGTCATGTGATTGCCATCCTACTTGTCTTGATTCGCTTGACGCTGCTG	6160
TGCGCAACAACTTTTCACGTGACCTTATGTCTAGAAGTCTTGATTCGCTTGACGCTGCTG	10200
TGGTGCACTATCCATTTCGTGCTTTTTGGTTATTGTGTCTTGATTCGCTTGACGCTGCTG	5640
TGAAGAAGGGGTAGACTCGGAAGCGTTCCAGCGTCTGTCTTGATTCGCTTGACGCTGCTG	2350
CTTCTGTAAATTTGGTGGGTGGGTGGACGCGCCCCGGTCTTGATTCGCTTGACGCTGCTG	4990
GTTACAAGACTTCACCACGTTAATAGCGATCTGGCTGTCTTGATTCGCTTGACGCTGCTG	6520

Repeated from above (set 2):
Sequence	E-score
CATAATGC	0.0483
GCACGCTA	0.17
CCAATTCC	-0.102
GAAGGGTA	-0.00466
AGCAGCCT	-0.175
GCGCTCTA	0.257
AGTTGACG	-0.0996
ACGCGTGA	0.212
